Measured values pooled from the literature.
Numbered parts are unrelated; each lists some results of a single study. Substitutions count along the parent as printed.

Set 1 — technique: universal PBM; form: double-stranded DNA, one strand shown; medium: in vitro; concentration: not given; direction: higher = stronger binding
Target: Sal-like protein 4, full length isoform B (SALL4, Homo sapiens, UniProt Q9UJQ4-2, residues 1-616)
Setting: 8-mer, flanks averaged, mean of replicates
Sequence | E-score
ACAGATAC | 0.155
GCGAAGAA | -0.0192
AGAACGCT | -0.0726
ACACGACT | 0.0338
CGATGCGA | -0.185
GGCTGGAA | -0.218
AGCAATTC | 0.0786
CGGGCAGC | -0.372
ATCCGAAG | -0.0605
AAATTCTC | 0.0378
CCCACTGA | -0.216
GAGCGAAA | -0.0451
AGCTGCAC | -0.131
CCGCACCA | -0.236
CCGTGCCA | -0.215
ATCTAATC | 0.3
TCTGCAGA | 0.0055
CGCCGTGA | -0.0986
ACGTCGGG | -0.264
GATACCCC | -0.0883
ATCGTAGA | 0.165
AATAATCC | 0.335
GGCTTTCA | -0.0645
ACCATAAT | 0.338
GAGCAGAA | -0.00094

Set 2 — technique: protein-binding microarray; form: double-stranded DNA, one strand shown; medium: in vitro; concentration: 2200 nM top; setting: 60-bp whole probe; together with: salmon DNA 0.4 mg/ml; relative to: random background probes; direction: higher = stronger binding; shared flanks, not repeated: GCCTAGCAC … GTCTTGATTCGCTTGACGCTGCTG
Target: Interferon regulatory factor 7, full length, phosphomimetic (IRF7, Homo sapiens, UniProt Q92985, residues 1-503, S471D/S472D/S475D/S476D/S477D/S483D/S484D/S487D)
Chain of UniProt Q92985 (whole entry, unmodified, looked up): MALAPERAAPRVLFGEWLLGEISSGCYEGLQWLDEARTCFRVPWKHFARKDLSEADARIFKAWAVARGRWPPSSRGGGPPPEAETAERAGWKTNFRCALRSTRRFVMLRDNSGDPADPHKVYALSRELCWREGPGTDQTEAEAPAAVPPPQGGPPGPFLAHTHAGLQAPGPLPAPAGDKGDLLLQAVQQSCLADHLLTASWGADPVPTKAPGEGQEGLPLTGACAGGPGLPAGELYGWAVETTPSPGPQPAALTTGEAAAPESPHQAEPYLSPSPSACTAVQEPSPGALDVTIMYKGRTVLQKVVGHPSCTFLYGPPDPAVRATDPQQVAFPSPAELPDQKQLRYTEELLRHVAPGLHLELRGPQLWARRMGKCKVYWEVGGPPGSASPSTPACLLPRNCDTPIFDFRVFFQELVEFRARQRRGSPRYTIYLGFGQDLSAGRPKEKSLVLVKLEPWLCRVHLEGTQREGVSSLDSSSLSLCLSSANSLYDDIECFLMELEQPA
Sequence | fitted relative affinity [z-score]
TATCATTTAATTATATGGCTGTGCTAG | 0.362
GACGAACTGGGATTTCGAGACGTGCTA | 0.407
TTAGATATCGGGTTTCGCTTAGTGCTA | 2.62
GCTTCTATGTAGTTGATGAAGTGCTAG | 1.2
TTAGATAGCAGACTGGATTAGTGCTAG | -0.423
ATAGGTTCCGGTTTCGGTTAGTGCTAG | 8.89
TTAGCTTTCGGGACTGGATTAGTGCTA | 3.34
TTAGATCTCAGTTTCGTTTAGTGCTAG | 6.65
GACCGTTTCGACTTTCGGGACGTGCTA | 6.89
GATGGTTTCGGGTATCGGGACGTGCTA | 6.43
CTAGATTCCAGTTTCGATTAGTGCTAG | 6.92
TTAGGTCTCCTTATACTTTAGTGCTAG | 0.56
GACGGTATCGACTAACGGGACGTGCTA | -0.449
TTAGGACTGGTTTTCGGTTAGTGCTAG | 4.67
TTAGGCTTCGACACTGGGTTAGTGCTA | -0.264
TCACATGTTGCTCTCCGACTGTGCTAG | 1.85
GACGATTTCGGGTATAGAGACGTGCTA | 2.16

Set 3 — technique: protein binding microarray; form: double-stranded DNA, one strand shown; medium: in vitro; concentration: not given; relative to: not given; direction: higher = stronger binding
Target: Histone acetyltransferase KAT6A, winged helix 1, GST fusion (KAT6A, Homo sapiens, UniProt Q92794, residues 1-85)
Setting: 8-mer, flanks averaged, mean of 2 arrays, mostly near background
Construct (chain): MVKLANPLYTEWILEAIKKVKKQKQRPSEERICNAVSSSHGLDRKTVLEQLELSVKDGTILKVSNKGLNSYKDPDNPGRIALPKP
Sequence | E-score
AGTTTAGG | -0.261
AGTTGTAA | -0.125
AAAGAACG | 0.0336
CACCGGTC | 0.187
ATCTATCA | -0.0757
CGTAACAG | 0.0684
ACAGATGG | -0.0002
CCCGAGAA | -0.0358
CCTACACC | -0.171
AAGAAGAT | 0.0189
GTAAGAAC | -0.0938
CGTTCGCA | 0.155
CACATCAC | -0.123
AAACCACT | -0.00834
ATGCAGTA | -0.0948
CAGTCCCC | -0.0827
CGCGAGGC | 0.312
CTTCTACC | -0.081
CAAGGAAC | -0.0571
CAGAGGAG | -0.236
CTTAGAGC | 0.0312
AAGGACTA | -0.257
CGAAAATC | -0.18

Set 4 — technique: RNA Bind-n-Seq; form: RNA; medium: in vitro; concentration: not given; relative to: input RNA pool; direction: higher = stronger binding
Target: RING finger protein unkempt homolog, zinc fingers 1-6, GST-SBP tag (UNK, Homo sapiens, UniProt Q9C0B0, residues 30-357)
Setting: RNA with constant flanks, human-mouse chimeric sites, ends assumed
Shared flanks, not repeated: GGGAGUUCUACAGUCCGACGAUC … CAACAGAGGAUUGAGCAUCA
Construct (chain): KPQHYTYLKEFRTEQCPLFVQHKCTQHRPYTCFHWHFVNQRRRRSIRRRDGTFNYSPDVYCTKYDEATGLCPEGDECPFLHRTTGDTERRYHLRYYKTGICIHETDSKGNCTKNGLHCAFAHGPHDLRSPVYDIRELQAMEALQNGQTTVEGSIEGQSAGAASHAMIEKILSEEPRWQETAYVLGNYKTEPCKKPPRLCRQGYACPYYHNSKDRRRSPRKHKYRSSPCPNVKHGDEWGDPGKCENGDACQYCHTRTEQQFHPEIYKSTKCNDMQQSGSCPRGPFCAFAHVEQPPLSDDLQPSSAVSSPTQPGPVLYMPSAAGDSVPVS
Sequence | bound/input enrichment
GGACAUCUUGUCAGGAUUAUUUCCCGUGUGAAACAAGUGAACACUCUGAUACACUUCAUCUGCUUGUACAUCUGUAUGAUAGAGAAAUGUAAAUAUGUUAAUCCAAGCAAUGUGUCACUU | 0.194 ratio
UAUCCAACUUUCUUGCCACAUUUUGAAUUCCAAGACAUUAUUCCUCCAGAUGACUUCCUAACGAGUGAUGAAGAGCAAGAUUUGGUUUUAUUUGGAAGUUUGAGAGGACAAGUUGUUGGA | 0.168 ratio
AAAGAACCUCUCUCUGAUGAAGAUGAGGAAGACAAUGAUGAUGUUGAACCUAUUACUGAAUUUCGAUUUGUGCCCAGUGAUAAGUCAGCAUUGGAGGCGAUGUUCACAGCAAUGUGUGAG | 0.259 ratio
ACACAAUAUGAGACCAACAGCUUGGACUUCAAAGUUGGGGCAGAUGGGACAGUCUUCGCCACUAGGGAGCUGCAGGUCCCCUCCGAGCAGGUGGCGUUCACGGUGACUGCAUGGGACAGC | 0.234 ratio
UGGCGCCUGCGCUCCCCACUCGUGUUUUUAAGUGUAUUUUUAUAAGAUACAUGUAUUUACAAUUGAGCUUUUGUUACAUAAUGCUGAAAACAUCUCUGAGAUUAUGAAAAAUGUUUCAAU | 0.0882 ratio
ACUCAGAGAUUAUAUUCCCAAAGUGCUGGGAGUAAAGGUGUGGCCACCACACCUAACUUCAUAGACAUAUAUUUUUUUUAAUAUGAAUCUUCCUGUUCGUCCAGGGAAGAAAGAUUUGUU | 3.87 ratio
CAGCUGCAGACAGAAAAGGAUGAGAAGGAGCUGUAUAAGGUACAUUUGAAGAAUACAGAAAUAGAAAAUACCAAGCUUGUGUCAGAGAUACAGACUUUAAAGAAUUUAGAUGGGAACAAA | 2.62 ratio
UCAUUUUUCUCUUUUCUUUCUUUCCUUUAGGAAAAGCAGAUUAGACUGGUUGUAAGAAAAAUAGAAGCCAUGUUUCGAAGACCUGUGUUACAGGUAUUUCGUCAGUUUGUAAGACAUGAG | 0.778 ratio
UAAAUUAGGGCUGCCGUUUUCUGUUUCUCCCUGGGCUGCGGAAAGCCAGAAGAUUUUAUCUAGCUUAAACCAGGCUGCUGGAGCUUGCUCUUUUUUUCCACGAGGGUGUUUUUGGCUGCA | 0.499 ratio
ACUCUUGACUCUUUCCAUCCUCUUCCUUUCCCUCUUGAUAUUCAAGGCCAUGAAUCCCAAAAUAACAGUCUUAGUGGGAGGCUAGCAAACAGAGGUGGAAUAAAUCCACCCCAGUGUCUC | 0.555 ratio
CACAGAGGAGAUCUGCUGUUCCUCACGAAUUUCCGGGAGGACCCCAUCAGAGCUGGUGAAAUAGUUGUUUUUAAAGUUGAAGGACGAGACAUUCCGAUAGUUCACAGAGUAAUCAAGGUU | 2.56 ratio

Set 5 — target: CCNB3, cyclin fold, Cln2 fusion (human); technique: yeast growth competition, sequencing; medium: yeast; setting: weak parent motif; relative to: not given; direction: higher = stronger binding
Starting sequence: GMNC docking peptide (human); KNAKRNLSSEFAN; partner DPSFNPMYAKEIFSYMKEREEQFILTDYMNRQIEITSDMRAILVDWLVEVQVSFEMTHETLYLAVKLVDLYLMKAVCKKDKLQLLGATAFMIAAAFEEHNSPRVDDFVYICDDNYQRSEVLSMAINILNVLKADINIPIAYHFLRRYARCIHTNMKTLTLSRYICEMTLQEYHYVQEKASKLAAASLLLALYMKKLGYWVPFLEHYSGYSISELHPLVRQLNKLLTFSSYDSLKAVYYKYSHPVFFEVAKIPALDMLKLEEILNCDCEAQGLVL
Substitution | normalised enrichment score
N2E | 0.559
A3M | 0.297
R5C | 0.0439
R5N | 0.0599
A12R | 0.271
S9P | 0.201
N6W | 0.343
L7Q | -0.0338
S9A | 0.61
L7W | -0.0806
R5M | 0.222
N6P | 0.0367
R5E | 0.176
E10H | 0.231
K4G | 0.104
N6T | 0.318
K4H | -0.257
N6E | 0.45
N6M | 0.128
L7T | 0.375
R5L | 0.0671
A3V | 0.852
A3C | 0.596
A12T | 0.287
A3I | 0.474

A few entries again (set 2):
Sequence | fitted relative affinity [z-score]
TTAGGTCTCCTTATACTTTAGTGCTAG | 0.56
GACGAACTGGGATTTCGAGACGTGCTA | 0.407
TTAGATATCGGGTTTCGCTTAGTGCTA | 2.62
GACCGTTTCGACTTTCGGGACGTGCTA | 6.89
TTAGGACTGGTTTTCGGTTAGTGCTAG | 4.67
ATAGGTTCCGGTTTCGGTTAGTGCTAG | 8.89
GACGATTTCGGGTATAGAGACGTGCTA | 2.16
TTAGATCTCAGTTTCGTTTAGTGCTAG | 6.65
GACGGTATCGACTAACGGGACGTGCTA | -0.449
TCACATGTTGCTCTCCGACTGTGCTAG | 1.85
GCTTCTATGTAGTTGATGAAGTGCTAG | 1.2
TTAGATAGCAGACTGGATTAGTGCTAG | -0.423
TTAGCTTTCGGGACTGGATTAGTGCTA | 3.34
TATCATTTAATTATATGGCTGTGCTAG | 0.362
CTAGATTCCAGTTTCGATTAGTGCTAG | 6.92
